Assay results from different studies.
A part holds a random share of what one study measured.
Chain of UniProt O95835 (whole entry, looked up): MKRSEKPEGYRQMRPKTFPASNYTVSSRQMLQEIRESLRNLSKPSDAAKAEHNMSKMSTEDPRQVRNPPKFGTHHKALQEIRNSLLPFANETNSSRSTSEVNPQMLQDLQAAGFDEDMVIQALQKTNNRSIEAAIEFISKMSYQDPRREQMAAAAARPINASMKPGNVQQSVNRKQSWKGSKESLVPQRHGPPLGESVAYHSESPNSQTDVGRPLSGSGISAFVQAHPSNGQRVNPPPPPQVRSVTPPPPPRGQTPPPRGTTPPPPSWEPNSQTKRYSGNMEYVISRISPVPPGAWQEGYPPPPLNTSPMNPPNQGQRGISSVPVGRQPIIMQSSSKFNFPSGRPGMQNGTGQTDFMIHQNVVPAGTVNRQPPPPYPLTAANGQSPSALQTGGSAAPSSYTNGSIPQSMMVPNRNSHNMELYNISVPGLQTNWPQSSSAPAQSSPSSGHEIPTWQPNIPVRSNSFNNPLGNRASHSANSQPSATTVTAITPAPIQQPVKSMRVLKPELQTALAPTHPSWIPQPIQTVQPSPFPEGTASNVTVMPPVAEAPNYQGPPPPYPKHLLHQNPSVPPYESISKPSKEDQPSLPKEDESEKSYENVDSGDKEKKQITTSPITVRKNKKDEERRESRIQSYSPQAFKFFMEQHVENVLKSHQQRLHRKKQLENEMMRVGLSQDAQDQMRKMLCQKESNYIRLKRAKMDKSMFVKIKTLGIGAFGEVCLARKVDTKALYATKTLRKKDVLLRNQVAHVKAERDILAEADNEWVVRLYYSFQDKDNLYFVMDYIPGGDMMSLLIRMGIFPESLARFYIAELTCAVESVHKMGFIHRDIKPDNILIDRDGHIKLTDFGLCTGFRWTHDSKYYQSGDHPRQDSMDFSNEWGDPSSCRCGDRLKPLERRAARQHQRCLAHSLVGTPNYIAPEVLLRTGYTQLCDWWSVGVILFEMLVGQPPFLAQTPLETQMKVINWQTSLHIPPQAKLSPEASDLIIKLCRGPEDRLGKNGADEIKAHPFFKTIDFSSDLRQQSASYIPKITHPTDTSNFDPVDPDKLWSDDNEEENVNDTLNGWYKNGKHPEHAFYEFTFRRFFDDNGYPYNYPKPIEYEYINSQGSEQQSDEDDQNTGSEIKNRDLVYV
Chain of UniProt P31152 (whole entry, looked up): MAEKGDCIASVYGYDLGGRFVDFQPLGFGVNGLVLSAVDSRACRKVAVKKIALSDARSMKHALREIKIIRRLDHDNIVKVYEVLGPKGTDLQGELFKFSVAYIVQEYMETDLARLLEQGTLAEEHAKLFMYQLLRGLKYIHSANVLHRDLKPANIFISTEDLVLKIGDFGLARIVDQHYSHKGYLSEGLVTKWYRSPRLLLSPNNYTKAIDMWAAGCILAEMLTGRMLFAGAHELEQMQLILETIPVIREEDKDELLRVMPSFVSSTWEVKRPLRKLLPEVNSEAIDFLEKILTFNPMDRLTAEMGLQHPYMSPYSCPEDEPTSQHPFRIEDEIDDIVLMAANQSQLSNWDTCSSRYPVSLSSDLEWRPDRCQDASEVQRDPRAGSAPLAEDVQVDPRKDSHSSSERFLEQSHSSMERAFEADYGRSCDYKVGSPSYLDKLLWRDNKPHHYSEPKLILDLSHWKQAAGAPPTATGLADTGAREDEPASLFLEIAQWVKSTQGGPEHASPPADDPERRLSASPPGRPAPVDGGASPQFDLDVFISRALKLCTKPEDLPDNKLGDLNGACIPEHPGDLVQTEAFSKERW
Chain of UniProt P50613 (whole entry, looked up): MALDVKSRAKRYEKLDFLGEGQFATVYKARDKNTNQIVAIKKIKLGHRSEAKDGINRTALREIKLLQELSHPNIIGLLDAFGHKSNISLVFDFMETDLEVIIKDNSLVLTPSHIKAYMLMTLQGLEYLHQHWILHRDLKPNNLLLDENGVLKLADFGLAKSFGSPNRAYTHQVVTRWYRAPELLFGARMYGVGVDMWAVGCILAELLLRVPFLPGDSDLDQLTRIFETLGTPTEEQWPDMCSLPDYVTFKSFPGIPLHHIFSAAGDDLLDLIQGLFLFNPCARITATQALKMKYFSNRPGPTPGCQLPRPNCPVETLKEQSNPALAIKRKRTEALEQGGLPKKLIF
Chain of UniProt O43318 (whole entry, looked up): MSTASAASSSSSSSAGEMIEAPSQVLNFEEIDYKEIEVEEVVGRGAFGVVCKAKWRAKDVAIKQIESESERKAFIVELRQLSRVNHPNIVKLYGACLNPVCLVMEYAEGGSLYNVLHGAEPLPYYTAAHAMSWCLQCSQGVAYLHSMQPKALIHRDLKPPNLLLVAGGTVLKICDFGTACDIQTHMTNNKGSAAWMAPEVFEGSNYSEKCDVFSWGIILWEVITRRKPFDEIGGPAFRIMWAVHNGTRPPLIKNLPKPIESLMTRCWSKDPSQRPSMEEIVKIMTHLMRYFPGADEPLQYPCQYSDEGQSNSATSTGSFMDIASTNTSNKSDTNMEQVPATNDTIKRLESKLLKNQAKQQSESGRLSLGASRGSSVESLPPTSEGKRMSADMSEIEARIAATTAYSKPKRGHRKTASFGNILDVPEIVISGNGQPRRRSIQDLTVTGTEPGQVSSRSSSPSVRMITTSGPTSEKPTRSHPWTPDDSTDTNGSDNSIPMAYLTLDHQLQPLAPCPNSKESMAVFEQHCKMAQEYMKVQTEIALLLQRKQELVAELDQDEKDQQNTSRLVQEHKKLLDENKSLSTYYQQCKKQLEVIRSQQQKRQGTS
Chain of UniProt Q16659 (whole entry, looked up): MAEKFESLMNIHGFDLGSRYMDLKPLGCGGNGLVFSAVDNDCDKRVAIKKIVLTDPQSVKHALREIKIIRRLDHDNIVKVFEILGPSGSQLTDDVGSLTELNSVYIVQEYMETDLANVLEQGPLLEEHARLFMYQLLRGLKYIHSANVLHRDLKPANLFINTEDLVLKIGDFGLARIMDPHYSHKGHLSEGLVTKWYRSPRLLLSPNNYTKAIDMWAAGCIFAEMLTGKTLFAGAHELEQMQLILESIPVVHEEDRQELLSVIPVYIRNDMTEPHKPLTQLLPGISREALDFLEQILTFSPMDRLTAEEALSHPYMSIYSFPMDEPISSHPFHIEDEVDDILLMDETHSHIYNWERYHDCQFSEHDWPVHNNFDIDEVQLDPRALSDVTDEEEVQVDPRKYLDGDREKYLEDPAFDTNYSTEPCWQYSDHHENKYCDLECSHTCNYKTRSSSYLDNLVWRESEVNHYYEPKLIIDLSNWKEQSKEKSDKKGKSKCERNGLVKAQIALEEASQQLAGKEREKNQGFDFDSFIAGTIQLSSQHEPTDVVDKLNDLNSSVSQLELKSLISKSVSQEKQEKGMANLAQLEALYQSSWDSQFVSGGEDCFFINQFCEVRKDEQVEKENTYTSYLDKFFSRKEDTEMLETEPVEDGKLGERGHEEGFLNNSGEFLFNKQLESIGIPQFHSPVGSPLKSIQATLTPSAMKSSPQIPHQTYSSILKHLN
Chain of UniProt Q99755 (whole entry, looked up): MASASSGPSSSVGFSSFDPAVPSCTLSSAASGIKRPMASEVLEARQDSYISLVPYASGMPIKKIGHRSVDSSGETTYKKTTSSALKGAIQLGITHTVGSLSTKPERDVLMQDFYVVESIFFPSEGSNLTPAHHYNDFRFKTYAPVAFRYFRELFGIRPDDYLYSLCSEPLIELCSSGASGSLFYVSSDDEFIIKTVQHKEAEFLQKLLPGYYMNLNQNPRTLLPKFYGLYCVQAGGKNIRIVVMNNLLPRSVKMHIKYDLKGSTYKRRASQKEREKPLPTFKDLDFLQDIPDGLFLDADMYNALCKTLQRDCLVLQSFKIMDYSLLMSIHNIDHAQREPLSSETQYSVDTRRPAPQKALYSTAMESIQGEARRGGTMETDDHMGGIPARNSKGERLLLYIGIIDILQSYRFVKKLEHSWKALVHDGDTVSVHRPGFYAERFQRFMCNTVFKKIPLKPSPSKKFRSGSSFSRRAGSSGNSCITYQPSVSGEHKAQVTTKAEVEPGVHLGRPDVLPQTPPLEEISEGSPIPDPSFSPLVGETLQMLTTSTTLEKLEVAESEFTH
Chain of UniProt P25098 (whole entry, looked up): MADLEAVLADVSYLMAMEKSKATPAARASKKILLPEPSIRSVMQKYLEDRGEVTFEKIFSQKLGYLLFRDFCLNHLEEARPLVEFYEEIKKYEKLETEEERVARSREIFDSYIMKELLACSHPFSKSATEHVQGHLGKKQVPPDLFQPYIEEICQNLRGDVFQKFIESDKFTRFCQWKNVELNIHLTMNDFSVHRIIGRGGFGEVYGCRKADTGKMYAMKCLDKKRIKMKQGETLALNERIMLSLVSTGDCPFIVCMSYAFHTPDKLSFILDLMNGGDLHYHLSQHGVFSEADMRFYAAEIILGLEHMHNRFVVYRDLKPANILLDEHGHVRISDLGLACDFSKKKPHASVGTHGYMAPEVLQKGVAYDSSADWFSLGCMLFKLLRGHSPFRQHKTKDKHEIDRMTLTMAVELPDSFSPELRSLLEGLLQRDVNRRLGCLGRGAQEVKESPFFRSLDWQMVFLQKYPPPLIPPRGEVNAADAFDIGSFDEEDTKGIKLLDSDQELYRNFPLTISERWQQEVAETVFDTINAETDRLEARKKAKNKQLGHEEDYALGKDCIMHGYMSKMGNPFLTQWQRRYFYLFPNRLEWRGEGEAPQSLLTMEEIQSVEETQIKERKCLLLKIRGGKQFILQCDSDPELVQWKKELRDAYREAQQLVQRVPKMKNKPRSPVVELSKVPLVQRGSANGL

Series 1 — tested at: 1 µM
SMILES: CN(C)C(=O)Cn1cc(-c2nc(C3(c4ccc(-c5cnc(N)nc5)cc4)CC3)no2)cn1
| target | read-out | technique | remaining binding |
| --- | --- | --- | --- |
| Tyrosine-protein kinase Fes/Fps (FES, Homo sapiens, UniProt P07332) | cell-free assay | competition with immobilised ligand | 100% |
| Mitogen-activated protein kinase 6 (MAPK6, Homo sapiens, UniProt Q16659) | cell-free assay | competition with immobilised ligand | 91% |
| Cyclin-dependent kinase 7 (CDK7, Homo sapiens, UniProt P50613) | cell-free assay | competition with immobilised ligand | 72% |
| Mitogen-activated protein kinase kinase kinase 7 (MAP3K7, Homo sapiens, UniProt O43318) | cell-free assay | competition with immobilised ligand | 72% |
| Mitogen-activated protein kinase 4 (MAPK4, Homo sapiens, UniProt P31152) | cell-free assay | competition with immobilised ligand | 100% |
| cAMP-dependent protein kinase catalytic subunit alpha (PRKACA, Homo sapiens, UniProt P17612) | cell-free assay | competition with immobilised ligand | 91% |
| Megakaryocyte-associated tyrosine-protein kinase (MATK, Homo sapiens, UniProt P42679) | cell-free assay | competition with immobilised ligand | 77% |
| cAMP-dependent protein kinase catalytic subunit beta (PRKACB, Homo sapiens, UniProt P22694) | cell-free assay | competition with immobilised ligand | 86% |
| Tyrosine-protein kinase SYK (SYK, Homo sapiens, UniProt P43405) | cell-free assay | competition with immobilised ligand | 77% |
| Mitogen-activated protein kinase kinase kinase 5 (MAP3K5, Homo sapiens, UniProt Q99683) | cell-free assay | competition with immobilised ligand | 91% |
| Beta-adrenergic receptor kinase 1 (GRK2, Homo sapiens, UniProt P25098) | cell-free assay | competition with immobilised ligand | 67% |
| Serine/threonine-protein kinase LATS1 (LATS1, Homo sapiens, UniProt O95835) | cell-free assay | competition with immobilised ligand | 100% |
| Tyrosine-protein kinase ABL1, phosphorylated (ABL1, Homo sapiens, UniProt P00519, F317I) | binding |  | 90% |
| Serine/threonine-protein kinase B-raf (BRAF, Homo sapiens, UniProt P15056, V600E) | cell-free assay | competition with immobilised ligand | 87% |
| Receptor-type tyrosine-protein kinase FLT3 (FLT3, Homo sapiens, UniProt P36888, R834Q) | cell-free assay | competition with immobilised ligand | 90% |
| Phosphatidylinositol 4-phosphate 5-kinase type-1 alpha (PIP5K1A, Homo sapiens, UniProt Q99755) | cell-free assay | competition with immobilised ligand | 95% |
| Calcium/calmodulin-dependent protein kinase type 1B (PNCK, Homo sapiens, UniProt Q6P2M8) | cell-free assay | competition with immobilised ligand | 77% |

Series 2 — cell line: mouse MPNST tumor cells; technique: high-content immunofluorescence imaging; measured: nuclear SOX9; tested at: 10 µM; time: 12 h; notes: mean of 2 replicates; baseline: DMSO control; reading: higher = more nuclear SOX9
| Compound | nuclear SOX9 intensity |
| --- | --- |
| CCC1(c2ncc[nH]2)Cc2ccccc2O1 (centres unmarked) | 98.2 % of DMSO |
| CC(C)N(CCCNC(=O)Nc1ccc(C(C)(C)C)cc1)C[C@H]1O[C@@H](n2ccc3c(N)ncnc32)[C@H](O)[C@@H]1O | 96.7 % of DMSO |
| O=C(O)C[C@@]1(O)C[C@@H](CCCCCCc2ccc(Cl)cc2Cl)OC1=O | 92 % of DMSO |
| CN1CCc2cccc3c2[C@H]1Cc1ccc(O)c(O)c1-3 | 137 % of DMSO |
| Cc1c(NC(C)C)c(=O)n(-c2ccccc2)n1C | 71.4 % of DMSO |
| CC(=O)Nc1nc(C)c(S(=O)(=O)Nc2ccc(C(O)(C(F)(F)F)C(F)(F)F)cc2)s1 | 91.3 % of DMSO |
| CC(C)n1c(=O)n(C(=O)NC2CC3CCC(C2)N3C)c2ccccc21 (centres unmarked) | 123 % of DMSO |
| O=C(O)c1cc(=O)c2c(Cl)cc(Cl)cc2[nH]1 | 94.1 % of DMSO |

Series 3 — read-out: enzyme activity; action: inhibitor; tested at: 0.5 µM; baseline: control
Target: Casein kinase II subunit alpha (CSNK2A1, Homo sapiens, UniProt P68400)
Chain of UniProt P68400 (whole entry, looked up): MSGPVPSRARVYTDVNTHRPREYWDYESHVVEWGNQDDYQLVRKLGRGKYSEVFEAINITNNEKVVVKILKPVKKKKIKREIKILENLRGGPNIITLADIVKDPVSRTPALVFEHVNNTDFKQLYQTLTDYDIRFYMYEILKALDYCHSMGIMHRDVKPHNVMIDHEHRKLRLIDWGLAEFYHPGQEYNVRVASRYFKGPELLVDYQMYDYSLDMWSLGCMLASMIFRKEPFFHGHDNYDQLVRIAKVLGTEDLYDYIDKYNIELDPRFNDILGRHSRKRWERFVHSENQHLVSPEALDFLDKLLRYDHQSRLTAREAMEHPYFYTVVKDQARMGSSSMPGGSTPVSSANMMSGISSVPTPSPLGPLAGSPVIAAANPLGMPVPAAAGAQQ
| SMILES | remaining activity [%] |
| --- | --- |
| CCN(CC)C(=O)c1ccc(Nc2nc(OCC3CCCCC3)c3[nH]cnc3n2)cc1 | 87.4 |
| CCN(CC)CCNC(=O)c1c(C)[nH]c(/C=C2\C(=O)Nc3ccc(F)cc32)c1C | 121 |
| c1ccc(-c2[nH]ncc2-c2ccnc3ccccc23)nc1 | 96.3 |
| Cc1nc2cc3nc(-c4cccs4)cnc3cc2n1C | 101 |
| N#Cc1c(NC(=O)c2cccc3ccccc23)sc2c1CCCC2 | 101 |
| CCOc1nc(NC(=O)Cc2cc(OC)ccc2OC)cc(N)c1C#N | 96.9 |
| N#C/C(=C\c1ccc(O)c(O)c1)C(=O)NCc1ccccc1 | 86.6 |
| Cc1cc2ncc(-c3ccccc3)nc2cc1C | 102 |
| O=C(Nc1cccc(Nc2nccc(Nc3cccc(C(F)(F)F)c3)n2)c1)C1CC1 | 94.1 |
| Cn1nc2c3c(cccc31)C(=O)c1ccccc1-2 | 90.2 |
| C[C@@H]1CCN(C(=O)CC#N)C[C@@H]1N(C)c1ncnc2[nH]ccc12 | 104 |
| COc1cc2ncnc(Nc3ccc(O)c(Br)c3)c2cc1OC | 93.7 |
| COc1cc2c(cc1OC)-c1[nH]nc(Nc3cccc(F)c3)c1C2 | 96.6 |
| O=C1C(Cl)=C(N2C(=O)CCC2=O)C(=O)c2ccccc21 | 99.3 |
| CN([C@@H](Cc1ccc(OS(=O)(=O)c2cccc3cnccc23)cc1)C(=O)N1CCN(c2ccccc2)CC1)S(=O)(=O)c1cccc2cnccc12 | 100 |
| Cc1cn(-c2cc(NC(=O)c3ccc(C)c(Nc4nccc(-c5cccnc5)n4)c3)cc(C(F)(F)F)c2)cn1 | 117 |
| CN(C)C[C@H]1CCn2c(c(C3=C(c4cn(C)c5ccccc45)C(=O)NC3=O)c3ccccc32)C1 | 98.9 |
| O=C1c2ccccc2-c2n[nH]c3cccc1c23 | 75 |
| CCN(CC)CCNC(=O)c1c(C)[nH]c(/C=C2\C(=O)Nc3ccc(Cl)cc32)c1C | 91.4 |
| Nc1cccc(-c2cc3c(Oc4cccc(O)c4)ncnc3[nH]2)c1 | 96.8 |
| Ic1cccc(CSc2nnc(-c3ccncc3)o2)c1 | 97.3 |
| O=C(NC(NC(=S)Nc1ccc(F)c([N+](=O)[O-])c1)C(Cl)(Cl)Cl)C(c1ccccc1)c1ccccc1 (centres unmarked) | 95.4 |
| c1ccc(-c2cnc(Nc3ccc(OCCN4CCCC4)cc3)s2)cc1 | 90.8 |
| O=c1cc(-c2cccc3c2Sc2ccccc2S3)oc(N2CCOCC2)c1 | 97.4 |

Series 4 — host: mouse; medium: microsomes or S9; tested at: 2 µM; time: 0.5 h
| Structure (SMILES) | remaining compound [%] |
| --- | --- |
| COc1cc(=O)[nH]cc1C(=O)NC1CCCN(c2ccccc2)C1=O (centres unmarked) | 85.5 |
| O=c1c2cc3c(=O)n(-c4ccccc4)ccc3nc2ccn1CCO | 97.6 |
| c1ccc(-n2ncc3c(Nc4cccc5ccccc45)ncnc32)cc1 | 0.229 |
| Cc1nnc(C)n1/N=C/c1ccc(Br)cc1 | 85.8 |
| Cc1ccc(CSC2=NS(=O)(=O)c3ccccc32)cc1 | 0.201 |
| CC(=O)NCCc1ccc(S(=O)(=O)N(C)C)cc1 | 66.1 |
| O=C(NCC1COc2ccccc2O1)c1c(-c2cncnc2)cc(=O)n2c1CCCC2 (centres unmarked) | 46.6 |

Repeated from above (series 4):
| Structure (SMILES) | remaining compound [%] |
| --- | --- |
| COc1cc(=O)[nH]cc1C(=O)NC1CCCN(c2ccccc2)C1=O (centres unmarked) | 85.5 |
| O=c1c2cc3c(=O)n(-c4ccccc4)ccc3nc2ccn1CCO | 97.6 |
| c1ccc(-n2ncc3c(Nc4cccc5ccccc45)ncnc32)cc1 | 0.229 |
| Cc1nnc(C)n1/N=C/c1ccc(Br)cc1 | 85.8 |
| Cc1ccc(CSC2=NS(=O)(=O)c3ccccc32)cc1 | 0.201 |
| CC(=O)NCCc1ccc(S(=O)(=O)N(C)C)cc1 | 66.1 |
| O=C(NCC1COc2ccccc2O1)c1c(-c2cncnc2)cc(=O)n2c1CCCC2 (centres unmarked) | 46.6 |
